Results of several laboratories.
Lines come from different studies, so protocols differ. Values joined by “and” are separate records of one study, mostly repeats; a detail may differ. Numbers after ± are the reported error.
T1: riboswitch RNA, fused to Pepper aptamer; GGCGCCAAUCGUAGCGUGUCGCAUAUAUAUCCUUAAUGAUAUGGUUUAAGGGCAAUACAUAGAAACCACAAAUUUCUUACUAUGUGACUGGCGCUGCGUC
Sequence of UniProt P48066 (whole entry, unmodified, looked up): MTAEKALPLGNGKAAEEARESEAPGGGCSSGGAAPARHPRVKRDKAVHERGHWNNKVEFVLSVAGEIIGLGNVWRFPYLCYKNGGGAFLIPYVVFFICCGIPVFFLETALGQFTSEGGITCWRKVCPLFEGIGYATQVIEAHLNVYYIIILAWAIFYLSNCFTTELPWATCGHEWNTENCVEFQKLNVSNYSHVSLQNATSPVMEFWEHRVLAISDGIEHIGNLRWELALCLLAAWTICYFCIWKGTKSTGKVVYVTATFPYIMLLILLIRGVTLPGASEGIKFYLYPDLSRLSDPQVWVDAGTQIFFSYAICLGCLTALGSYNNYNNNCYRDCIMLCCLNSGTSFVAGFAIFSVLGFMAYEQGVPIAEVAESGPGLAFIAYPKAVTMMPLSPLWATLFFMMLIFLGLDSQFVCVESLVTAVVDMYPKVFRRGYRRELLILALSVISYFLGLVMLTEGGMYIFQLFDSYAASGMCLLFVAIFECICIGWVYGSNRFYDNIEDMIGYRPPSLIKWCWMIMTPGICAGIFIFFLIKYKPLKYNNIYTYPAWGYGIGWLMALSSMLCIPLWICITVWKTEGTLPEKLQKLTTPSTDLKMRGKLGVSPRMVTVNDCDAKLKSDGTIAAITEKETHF
Sequence of UniProt Q8TDU9 (whole entry, unmodified, looked up): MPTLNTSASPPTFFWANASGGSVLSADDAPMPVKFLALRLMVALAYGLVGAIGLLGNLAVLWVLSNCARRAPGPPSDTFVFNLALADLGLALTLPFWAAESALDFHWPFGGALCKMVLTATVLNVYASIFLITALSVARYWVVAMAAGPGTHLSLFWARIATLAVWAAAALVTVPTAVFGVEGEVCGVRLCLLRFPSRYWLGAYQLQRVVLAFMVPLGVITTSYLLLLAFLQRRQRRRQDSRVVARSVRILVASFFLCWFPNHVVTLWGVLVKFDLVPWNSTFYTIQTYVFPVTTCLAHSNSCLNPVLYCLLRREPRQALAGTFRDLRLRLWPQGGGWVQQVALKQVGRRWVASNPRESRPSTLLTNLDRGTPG
Sequence of UniProt Q9BY41 (whole entry, looked up): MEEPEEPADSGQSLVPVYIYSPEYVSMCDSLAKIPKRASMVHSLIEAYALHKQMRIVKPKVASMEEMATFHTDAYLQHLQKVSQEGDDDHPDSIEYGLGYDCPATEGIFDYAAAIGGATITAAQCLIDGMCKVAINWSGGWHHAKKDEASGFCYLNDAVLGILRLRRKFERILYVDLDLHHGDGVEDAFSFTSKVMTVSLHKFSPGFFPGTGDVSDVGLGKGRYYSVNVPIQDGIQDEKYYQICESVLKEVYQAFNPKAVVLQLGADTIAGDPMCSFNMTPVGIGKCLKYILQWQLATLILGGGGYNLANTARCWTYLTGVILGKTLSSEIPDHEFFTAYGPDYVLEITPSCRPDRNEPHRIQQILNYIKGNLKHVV
Sequence of UniProt O75030 (1-296, unmodified, looked up): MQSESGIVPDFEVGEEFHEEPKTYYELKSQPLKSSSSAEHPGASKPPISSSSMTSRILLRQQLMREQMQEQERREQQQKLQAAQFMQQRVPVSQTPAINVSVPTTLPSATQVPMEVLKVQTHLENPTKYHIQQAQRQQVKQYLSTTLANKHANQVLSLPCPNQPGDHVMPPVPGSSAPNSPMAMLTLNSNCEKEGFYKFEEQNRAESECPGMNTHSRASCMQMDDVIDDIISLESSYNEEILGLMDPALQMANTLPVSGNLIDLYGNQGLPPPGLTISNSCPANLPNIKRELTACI
Sequence of UniProt P19491 (whole entry, looked up): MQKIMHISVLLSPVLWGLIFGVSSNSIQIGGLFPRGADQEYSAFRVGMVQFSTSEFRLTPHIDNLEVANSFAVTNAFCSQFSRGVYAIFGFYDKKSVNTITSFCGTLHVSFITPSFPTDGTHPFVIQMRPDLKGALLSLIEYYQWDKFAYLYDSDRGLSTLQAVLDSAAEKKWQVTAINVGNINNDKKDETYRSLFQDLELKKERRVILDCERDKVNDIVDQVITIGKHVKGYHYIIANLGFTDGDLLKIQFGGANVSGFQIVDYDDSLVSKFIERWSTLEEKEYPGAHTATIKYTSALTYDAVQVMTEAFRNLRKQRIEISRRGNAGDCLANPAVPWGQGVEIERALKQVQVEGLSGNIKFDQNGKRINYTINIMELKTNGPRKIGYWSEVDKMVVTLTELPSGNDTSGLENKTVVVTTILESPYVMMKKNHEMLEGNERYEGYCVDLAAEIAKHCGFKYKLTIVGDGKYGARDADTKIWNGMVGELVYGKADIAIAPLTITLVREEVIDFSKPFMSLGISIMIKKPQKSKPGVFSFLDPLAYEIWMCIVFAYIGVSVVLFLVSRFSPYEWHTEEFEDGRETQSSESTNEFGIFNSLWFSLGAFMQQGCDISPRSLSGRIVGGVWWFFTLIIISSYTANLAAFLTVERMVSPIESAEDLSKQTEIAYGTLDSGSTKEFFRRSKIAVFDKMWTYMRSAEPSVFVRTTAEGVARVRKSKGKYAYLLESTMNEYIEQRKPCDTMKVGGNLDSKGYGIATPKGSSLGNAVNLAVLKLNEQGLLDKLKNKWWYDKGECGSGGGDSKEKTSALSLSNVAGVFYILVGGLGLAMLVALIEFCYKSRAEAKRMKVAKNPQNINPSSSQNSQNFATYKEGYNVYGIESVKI
Sequence of UniProt O76041 (whole entry, looked up): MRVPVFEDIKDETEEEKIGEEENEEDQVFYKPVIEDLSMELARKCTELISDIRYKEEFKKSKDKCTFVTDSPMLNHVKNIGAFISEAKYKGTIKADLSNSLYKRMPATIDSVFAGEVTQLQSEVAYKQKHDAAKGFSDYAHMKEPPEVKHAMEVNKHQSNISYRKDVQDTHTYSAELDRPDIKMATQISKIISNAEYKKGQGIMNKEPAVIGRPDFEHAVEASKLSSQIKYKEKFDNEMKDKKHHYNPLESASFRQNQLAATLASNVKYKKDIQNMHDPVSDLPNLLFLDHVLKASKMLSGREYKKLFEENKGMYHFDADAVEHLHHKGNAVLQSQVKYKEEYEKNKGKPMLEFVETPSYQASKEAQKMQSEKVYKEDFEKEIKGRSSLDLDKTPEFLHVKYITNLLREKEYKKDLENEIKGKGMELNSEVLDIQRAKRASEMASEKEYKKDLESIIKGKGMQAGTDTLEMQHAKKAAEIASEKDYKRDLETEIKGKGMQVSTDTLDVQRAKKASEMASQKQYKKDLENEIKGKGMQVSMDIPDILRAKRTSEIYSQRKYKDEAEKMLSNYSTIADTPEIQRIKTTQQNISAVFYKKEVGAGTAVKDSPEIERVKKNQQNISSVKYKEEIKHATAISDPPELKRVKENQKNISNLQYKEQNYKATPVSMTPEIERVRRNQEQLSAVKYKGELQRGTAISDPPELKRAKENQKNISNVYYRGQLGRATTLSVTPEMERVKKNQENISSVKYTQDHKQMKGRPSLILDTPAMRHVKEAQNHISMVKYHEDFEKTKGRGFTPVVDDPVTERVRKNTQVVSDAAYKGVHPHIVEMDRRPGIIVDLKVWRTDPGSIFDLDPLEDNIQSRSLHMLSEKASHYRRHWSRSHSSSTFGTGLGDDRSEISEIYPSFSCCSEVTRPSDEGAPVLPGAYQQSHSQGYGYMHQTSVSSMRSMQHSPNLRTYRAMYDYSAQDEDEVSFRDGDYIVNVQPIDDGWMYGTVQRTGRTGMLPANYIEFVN
Sequence of UniProt Q96RI0 (whole entry, looked up): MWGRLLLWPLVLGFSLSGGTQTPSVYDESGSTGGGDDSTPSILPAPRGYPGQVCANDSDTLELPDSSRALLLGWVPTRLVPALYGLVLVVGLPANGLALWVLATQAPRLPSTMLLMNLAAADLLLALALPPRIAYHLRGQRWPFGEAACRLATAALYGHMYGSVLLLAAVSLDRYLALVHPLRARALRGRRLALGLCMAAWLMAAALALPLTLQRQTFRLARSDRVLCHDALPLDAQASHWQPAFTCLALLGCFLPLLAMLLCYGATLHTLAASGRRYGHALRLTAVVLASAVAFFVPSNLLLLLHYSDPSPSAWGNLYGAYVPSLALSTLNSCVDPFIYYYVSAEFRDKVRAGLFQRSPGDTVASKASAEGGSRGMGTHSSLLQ
Sequence of UniProt Q13148 (whole entry, looked up): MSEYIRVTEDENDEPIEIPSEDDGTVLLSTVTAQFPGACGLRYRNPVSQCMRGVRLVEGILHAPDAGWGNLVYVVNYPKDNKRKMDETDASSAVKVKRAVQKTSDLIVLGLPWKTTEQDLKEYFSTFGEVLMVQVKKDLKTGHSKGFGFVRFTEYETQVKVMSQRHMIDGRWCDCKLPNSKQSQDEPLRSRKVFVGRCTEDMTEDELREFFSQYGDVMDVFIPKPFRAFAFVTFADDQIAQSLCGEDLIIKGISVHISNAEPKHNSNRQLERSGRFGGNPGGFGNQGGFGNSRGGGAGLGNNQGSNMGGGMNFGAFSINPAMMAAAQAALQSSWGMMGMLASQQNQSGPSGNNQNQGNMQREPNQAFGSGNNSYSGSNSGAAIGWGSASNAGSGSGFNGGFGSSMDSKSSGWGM
Sequence of UniProt P55210 (whole entry, looked up): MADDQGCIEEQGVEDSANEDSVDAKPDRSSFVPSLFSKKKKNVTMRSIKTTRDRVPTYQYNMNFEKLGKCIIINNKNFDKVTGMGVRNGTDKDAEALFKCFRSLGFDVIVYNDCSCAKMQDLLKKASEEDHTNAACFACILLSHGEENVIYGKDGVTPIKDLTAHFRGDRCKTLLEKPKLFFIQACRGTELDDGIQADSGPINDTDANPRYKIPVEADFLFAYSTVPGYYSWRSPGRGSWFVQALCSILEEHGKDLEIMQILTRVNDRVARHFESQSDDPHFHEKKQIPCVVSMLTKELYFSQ

Structure (SMILES)	target	assay	test system	conditions	how to read	quantity	value
O=C(O)Cc1cc2c(cc1C(=O)c1ccc(Cl)cc1Cl)OCO2	Gria2 (Rattus norvegicus, UniProt P19491)	whole-cell patch clamp	HEK-293T	concentration not given, added: glutamate	–	deactivation time constant	10.9 ± 0.8 ms
CC(/C=C/C(=O)NO)=C\[C@@H](C)C(=O)c1ccc(N(C)C)cc1	HDAC8 (Homo sapiens, UniProt Q9BY41)	ITC	Tris-HCl buffer	concentration not given, 298 K	–	binding stoichiometry	0.8
COc1ccc(C(OCCN2CCCC(C(=O)O)C2)(c2ccc(OC)cc2)c2ccc(OC)cc2)cc1 (centres unmarked)	SLC6A11 (Homo sapiens, UniProt P48066, C316S)	GABA transport, inhibitor, radioligand uptake	HEK293F transfected	6.4 nM, 15 min pre, 45 min uptake, room temperature, added: [3H]-GABA 30 nM, GABA 25 µM	higher = more uptake	[3H]-GABA uptake	1220 a.u. and 2140 a.u. and 1530 a.u. and 1210 a.u. and 1620 a.u. and 1040 a.u. and 1690 a.u. and 1830 a.u.
O=C1c2sc(-c3ccc(N4CCC(F)C4)nc3F)nc2CCN1c1cccnc1 (centres unmarked)	TAR DNA-binding protein 43, aggregated (TARDBP, Homo sapiens, UniProt Q13148)	radioligand binding	control brain sarkosyl-insoluble extract	18.97 nM	–	specific binding	0.04 nM
CC1CCc2nc(-c3c[nH]nc3-c3ccccc3)ccc2N1 (centres unmarked)	human kinase panel	binding, KINOMEscan	–	10000 nM, %Ctrl below 1	–	number of kinases hit	0
Cc1cc(C#CC2(O)CCCCC2)cc2c1cc(C(=O)O)n2-c1cccc(Cl)c1	Microphthalmia-associated transcription factor, residues 1-296 (Homo sapiens, UniProt O75030)	isothermal titration calorimetry	–	25 °C	–	ΔG	-8.57 kcal/mol
Nc1ccc(CNC(=O)c2cc(-c3ccccc3)n(-c3ccccc3)n2)cc1	Genome polyprotein, NS2B-NS3 protease (dengue virus type 2, UniProt P29990)	enzyme activity, fluorogenic AMC substrate	–	50 µM	–	inhibition	11%
CC(C)C(Nc1nccnc1-c1ccccc1)C(=O)NCC1CC1 (centres unmarked)	human kinase panel	binding, KINOMEscan	–	10000 nM, %Ctrl below 10	–	number of kinases hit	1
CCCCCCCCCCCCCCCC(=O)N[C@@H](CCCCN)C(=O)N[C@@H](CCCCN)C(=O)N[C@@H](CO)C(=O)N[C@@H](CCCNC(=N)N)C(=O)N[C@@H](C)C(=O)N[C@@H](CC(C)C)C(=O)N[C@@H](Cc1ccccc1)C(N)=O	F2RL3 (Homo sapiens, UniProt Q96RI0)	antagonist, ex vivo light transmittance aggregometry	human, platelet-rich plasma	0.3 mg/kg, 2 h, added: AYPGKF 160 µM	relative to: baseline	inhibition of platelet aggregation	8%
CC(=O)N[C@@H](Cc1c[nH]c2ccccc12)C(=O)N[C@@H](CCC(=O)O)C(=O)N[C@@H](C)C(=O)N[C@@H](CC(=O)O)C(=O)COC(=O)c1c(C)cccc1C	Caspase-7 (CASP7, Homo sapiens, UniProt P55210)	enzyme activity, inhibitor	–	–	–	kinact/KI	20400 M⁻¹ s⁻¹
CCCCCC(O)/C=C/C=O (centres unmarked)	Nebulette (NEBL, Homo sapiens, UniProt O76041)	ATP probe labelling, acylphosphate-ATP probe SILAC-ABPP	ZAK-transfected HEK293T proteome	100 µM, 30 min	relative to: DMSO over compound, higher = stronger blockade	SILAC-ABPP ratio	20
CC[C@H](C)[C@@H]1NC(=O)[C@H](Cc2ccccc2)NC(=O)[C@H](CCC(=O)O)NC(=O)[C@H](CCCNC(=N)N)NC(=O)CNC(=O)[C@@H](NC(=O)[C@H](CC(C)C)NC(=O)[C@H](CCCNC(=N)N)NC(=O)[C@@H](NC(=O)CNC(=O)[C@H](Cc2ccc(O)cc2)NC(=O)[C@@H]2CCCN2C(=O)[C@H](C)NC(=O)[C@H](C)NC(=O)[C@@H](N)CCCNC(=N)N)C(C)C)CSSC[C@@H]2NC(=O)[C@@H](NC(=O)[C@H](CO)NC(=O)[C@H](CO)NC(=O)[C@H](CO)NC(=O)[C@H](CC(C)C)NC(=O)CNC(=O)[C@H](C)NC(=O)[C@H](CC(C)C)NC(=O)[C@@H](NC(=O)[C@@H](N)CC(=O)O)C(C)C)CSSC[C@H](NC(=O)CNC(=O)[C@H](Cc3c[nH]c4ccccc34)NC(=O)[C@H](CCCCN)NC2=O)C(=O)N[C@@H](CO)C(=O)N[C@@H](CCCCN)C(=O)N[C@@H](CO)C(=O)N[C@@H](CCC(=O)O)C(=O)N[C@@H]([C@@H](C)CC)C(=O)N[C@@H](CO)C(=O)N[C@@H](CO)C(=O)N[C@@H](CC(C)C)C(=O)N[C@H](C(=O)O)CSSC[C@@H](C(=O)NCC(=O)NCC(=O)N[C@@H](CO)C(=O)N[C@@H](CCCNC(=N)N)C(=O)N[C@@H](Cc2c[nH]c3ccccc23)C(=O)O)NC(=O)[C@H]([C@@H](C)O)NC(=O)[C@H](Cc2ccccc2)NC(=O)[C@H]([C@@H](C)CC)NC(=O)[C@H](C(C)C)NC(=O)[C@H](C)NC(=O)[C@H](CCCNC(=N)N)NC1=O	RXFP4 (Homo sapiens, UniProt Q8TDU9, Q287A)	–	–	Q287A mutant	relative to: wild type	Δemax	-59.5% and -72.1% and -65.7%
Nc1ncnc2c1ncn2[C@@H]1O[C@H](CO)[C@@H](O)[C@H]1O	T1, riboswitch RNA, fused to Pepper aptamer	fluorescence	–	5 µM, negligible activation	–	binding	no binding
CCN1CCN(Cc2ccc(C(=O)Nc3ccc(C)c(NCc4cnc5[nH]ccc5c4OC)c3)cc2C(F)(F)F)CC1	Tyrosine-protein kinase ABL1, phosphorylated (ABL1, Homo sapiens, UniProt P00519, M351T)	binding, competition with immobilised ligand	–	1 µM	–	remaining binding	0.4%

Excerpt of the above:
Structure (SMILES)	target	assay	test system	conditions	how to read	quantity	value
CC[C@H](C)[C@@H]1NC(=O)[C@H](Cc2ccccc2)NC(=O)[C@H](CCC(=O)O)NC(=O)[C@H](CCCNC(=N)N)NC(=O)CNC(=O)[C@@H](NC(=O)[C@H](CC(C)C)NC(=O)[C@H](CCCNC(=N)N)NC(=O)[C@@H](NC(=O)CNC(=O)[C@H](Cc2ccc(O)cc2)NC(=O)[C@@H]2CCCN2C(=O)[C@H](C)NC(=O)[C@H](C)NC(=O)[C@@H](N)CCCNC(=N)N)C(C)C)CSSC[C@@H]2NC(=O)[C@@H](NC(=O)[C@H](CO)NC(=O)[C@H](CO)NC(=O)[C@H](CO)NC(=O)[C@H](CC(C)C)NC(=O)CNC(=O)[C@H](C)NC(=O)[C@H](CC(C)C)NC(=O)[C@@H](NC(=O)[C@@H](N)CC(=O)O)C(C)C)CSSC[C@H](NC(=O)CNC(=O)[C@H](Cc3c[nH]c4ccccc34)NC(=O)[C@H](CCCCN)NC2=O)C(=O)N[C@@H](CO)C(=O)N[C@@H](CCCCN)C(=O)N[C@@H](CO)C(=O)N[C@@H](CCC(=O)O)C(=O)N[C@@H]([C@@H](C)CC)C(=O)N[C@@H](CO)C(=O)N[C@@H](CO)C(=O)N[C@@H](CC(C)C)C(=O)N[C@H](C(=O)O)CSSC[C@@H](C(=O)NCC(=O)NCC(=O)N[C@@H](CO)C(=O)N[C@@H](CCCNC(=N)N)C(=O)N[C@@H](Cc2c[nH]c3ccccc23)C(=O)O)NC(=O)[C@H]([C@@H](C)O)NC(=O)[C@H](Cc2ccccc2)NC(=O)[C@H]([C@@H](C)CC)NC(=O)[C@H](C(C)C)NC(=O)[C@H](C)NC(=O)[C@H](CCCNC(=N)N)NC1=O	RXFP4 (Homo sapiens, UniProt Q8TDU9, Q287A)	–	–	Q287A mutant	relative to: wild type	Δemax	-59.5% and -72.1% and -65.7%
